Measurements pooled from the literature.
Parts stem from different laboratories: compare values within a part only.

Sample 1 — method: RNA Bind-n-Seq; molecule type: RNA; matrix: in vitro; tested at: 365 nM; relative to: no-protein control; reading: higher = stronger binding
Target: RNA binding protein fox-1 homolog 2, RRM domain, GST-SBP tag (RBFOX2, Homo sapiens, UniProt O43251-10, residues 100-194)
Setting: natural RNA segment, single round, ends assumed
Constant ends, left off below: GGGAGUUCUACAGUCCGACGAUC … UGGAAUUCUCGGGUGCCAA
Residues (chain): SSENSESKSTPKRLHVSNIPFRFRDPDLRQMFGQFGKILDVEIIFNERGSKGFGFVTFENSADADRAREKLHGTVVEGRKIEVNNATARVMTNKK
| Strand | RBNS enrichment (R) |
| --- | --- |
| CUCCCACCUGUUCAGGUUGUGGCAGCCUCUGUGCAGGUUGGAUGUGGAAAUAAAAGCAACCCUGUGUGAGAAUGCUGUCCUGAUCUCUUUGUAGCUCAGAGUGGCCUUGA | 0.422 |
| AUGUAUGUUAUAUAACAUUCAAAAGAAUUUUUUUCUUGAUUGAGAAAAGGAUACAAAAUGCAAAAUCCACAAUUUUGAUAACUGAAAAUUGCCAAUUGUUUUGCAGUACU | 0.348 |
| CAGCUCCCAUGCCACAGAGGGACAGACCCCUGCUGUCCUGCCCUCUUGCCACUGGUGAGAGAAGGCCCUUGUCUCCUCAGACUAGGAGGUCUCCCACAGUGACAGCUCCU | 0.197 |
| UGGUGAUUUCUGAUGUAAAUAAUGUUGUUUAUAUAGUAUGUAUUAAAUUUUCCUACAUUGUAAAACUCUGUACUUUUUUGAUUCUUGUAUAUUAAAAAGUGUUACUAAGG | 2.39 |
| UCAACUCCUAUUAAUACCCAUAAUCAGUAACCUACCAAGAAAAGCCCGUAUUUGGAAAGUGUGGAGUUUGUGUUGGAAAAGCUGCCUGGAGAGAAGAGUUGUGUCCUUUA | 1.07 |
| UGUGUGUGGGCACAAGAGGACAUCUAACCACCUGCUCCUUGGAGGAGGCCCCCAGGGGUGGUAGAGGCUGGAAGGAAGCCACAUCAGGAGGACGCCACUCCGGCCCUUCA | 0.36 |
| AUCCAUUCGAAAUCUGUAUCCCAUUUGAUCCUUAUGUAAGUCUCAUGAGUAAACAGAACAGAAUUUUUUUUUCUUGUGUGCAUGAAAGAAUUUGCAGAUCGCAGAGGACA | 1.68 |
| AUCACAUACUCAUUUUACUUGAAAUUAUGUCACUAGACAACUUAUAUUUUGGAGUCUUGAGAUUGUUUUUCUCUUUUCUUAUUAAAUAAUCUUUCUAUAAACCAGCACUA | 0.43 |

Sample 2 — method: competition protein-binding microarray; molecule type: double-stranded DNA, one strand shown; matrix: in vitro; tested at: 2 µM; with: Cbf1 competitor, 0.05 µM; reading: higher = stronger binding; constant ends, left off below: … GTCTTGATTCGCTTGACGCTGCTG
Target: Phosphate system positive regulatory protein PHO4, full length, GST-tagged (PHO4, Saccharomyces cerevisiae, UniProt P07270, residues 1-312)
Setting: whole 60-bp probe, lowest competitor level
Residues (chain): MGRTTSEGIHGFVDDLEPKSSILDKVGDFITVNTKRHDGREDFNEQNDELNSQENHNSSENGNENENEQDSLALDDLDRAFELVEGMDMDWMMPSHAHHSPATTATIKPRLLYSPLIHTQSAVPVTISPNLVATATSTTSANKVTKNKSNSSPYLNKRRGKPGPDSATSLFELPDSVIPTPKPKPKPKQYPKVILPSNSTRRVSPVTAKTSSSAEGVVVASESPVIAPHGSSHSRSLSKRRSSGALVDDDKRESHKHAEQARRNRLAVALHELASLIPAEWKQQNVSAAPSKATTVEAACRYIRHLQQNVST
| Strand | fluorescence intensity |
| --- | --- |
| CGTCCTAGTGATTGTCACCGTACTTCCATGAGGAAG | 4860 a.u. |
| AGGAGTTTCTCCGGCCATGTGCGGCTGGTTCTACTT | 9840 a.u. |
| TAACATGCAGTATCGCACGGCGGGCCGAAAGTCGGA | 5710 a.u. |
| CTGTGCCACCATTTGCACGTTGGCATCCGCGTCCTT | 12700 a.u. |
| ACATTGGTCTGAAAACACGTGTAGTACTTTCTCCTT | 18600 a.u. |
| GTTTTGCTAGGTAACCACGTTGGTCTAGAAATCGCA | 13200 a.u. |
| CTAACGAAGGTTTGTCACCTAACTTACAAGCCAAGT | 2910 a.u. |
| CGGGGTTAAGTTTGTCACGCGACTTGCTTGCAGCAG | 6400 a.u. |
| ATAACGTTGCTTTTGCACGTGTAGTTCGCTGCTTAG | 14100 a.u. |
| GTACTGGAATTGTATGCCAAACTTTGCCGGGAAAAC | 3930 a.u. |

Sample 3 — method: aptamer microarray, sandwich; molecule type: DNA with 2'F-ANA; matrix: in vitro; tested at: 200 nM; with: Cy3 exosite-II aptamer, 400 nM; reading: higher = stronger binding; strand: GGTTGGTGTGGTTGG
Target: Prothrombin, mature alpha-thrombin (F2, Homo sapiens, UniProt P00734)
Setting: whole 15-mer aptamer, many near background
| Modification | mean fluorescence intensity [a.u.] |
| --- | --- |
| 2'F-ANA at 2 5 8 10 12 | 51.6 |
| 2'F-ANA at 1 2 7 9 10 14 15 | 103 |
| 2'F-ANA at 4 6 7 9 10 12 14 15 | 63.1 |
| 2'F-ANA at 1 2 4 6 9 10 11 | 48.2 |
| 2'F-ANA at 3 4 9 10 13 14 15 | 184 |
| 2'F-ANA at 2 4 6 8 14 15 | 95.6 |
| 2'F-ANA at 1 2 5 6 10 12 | 50.8 |
| 2'F-ANA at 1 2 3 4 5 6 7 9 10 13 15 | 65.7 |
| 2'F-ANA at 1 2 4 7 9 12 13 14 15 | 61 |
| 2'F-ANA at 3 8 10 13 14 | 344 |

Other studies, line by line
| Molecule | target | test | system | setting | scale | endpoint | value |
| --- | --- | --- | --- | --- | --- | --- | --- |
| PhoQ, residues 284 288 289 292 302 303 SCEHLI | PhoP, residues 12 14 15 18 19 MHTVL (Escherichia coli, UniProt P23836) | Sort-seq, measured: YFP reporter | E. coli | PhoQ-PhoP variant library, with: 10 µM Mg2+ | relative to: high Mg2+ state, higher = stronger signaling | fold induction | 14.1 |

A few entries again (sample 3):
| Modification | mean fluorescence intensity [a.u.] |
| --- | --- |
| 2'F-ANA at 1 2 7 9 10 14 15 | 103 |
| 2'F-ANA at 4 6 7 9 10 12 14 15 | 63.1 |
| 2'F-ANA at 1 2 4 6 9 10 11 | 48.2 |
| 2'F-ANA at 3 4 9 10 13 14 15 | 184 |
